Published values gathered from unrelated publications.
Each numbered part is a random draw from the data of one study; scales do not carry over between parts.
UniProt Q8S8P5, sequence (346-449, looked up): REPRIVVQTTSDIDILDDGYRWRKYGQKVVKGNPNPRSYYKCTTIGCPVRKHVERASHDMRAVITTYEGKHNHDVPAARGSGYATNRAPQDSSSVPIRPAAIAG

Series 1 — technique: protein-binding microarray; form: double-stranded DNA, one strand shown; matrix: in vitro; tested at: 2540 nM top; setting: 60-bp whole probe; added: salmon DNA 0.4 mg/ml; reference: random background probes; direction: higher = stronger binding
Target: Interferon regulatory factor 3, full length, phosphomimetic (IRF3, Homo sapiens, UniProt Q14653, residues 1-427, S386D/S396D/S398D/S402D/T404D/S405D)
UniProt Q14653, sequence (whole entry, unmodified, looked up): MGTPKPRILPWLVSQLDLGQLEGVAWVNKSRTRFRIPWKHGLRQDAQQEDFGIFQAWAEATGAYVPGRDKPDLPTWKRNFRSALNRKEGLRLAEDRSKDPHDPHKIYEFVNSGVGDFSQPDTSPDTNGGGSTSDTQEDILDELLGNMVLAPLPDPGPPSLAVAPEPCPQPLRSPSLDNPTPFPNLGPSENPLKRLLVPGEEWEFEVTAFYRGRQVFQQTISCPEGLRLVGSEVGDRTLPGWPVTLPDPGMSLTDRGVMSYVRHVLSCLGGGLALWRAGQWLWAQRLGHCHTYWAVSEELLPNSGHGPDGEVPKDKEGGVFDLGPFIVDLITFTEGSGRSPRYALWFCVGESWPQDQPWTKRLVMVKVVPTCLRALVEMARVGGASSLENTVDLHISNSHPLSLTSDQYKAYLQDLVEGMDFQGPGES
Oligonucleotide	fitted relative affinity [z-score]
GCCTAGCACGACGGACTGGTGTTTCGGGACGTGCTAGTCTTGATTCGCTTGACGCTGCTG	0.464
GCCTAGCACGAAATTTTTTTTCTAACTAAGTGCTAGGTCTTGATTCGCTTGACGCTGCTG	0.986
GCCTAGCACGACGGACTGCTACGGCTGACGTGCTAGGTCTTGATTCGCTTGACGCTGCTG	-0.651
GCCTAGCACGTTCTTATCCTTCCCCTCTAGTGCTAGGTCTTGATTCGCTTGACGCTGCTG	1.95

Other studies, line by line
SALL4 full length isoform A: Sal-like protein 4, full length isoform A (SALL4, Homo sapiens, UniProt Q9UJQ4, residues 1-1053)
SALL4 full length isoform B: Sal-like protein 4, full length isoform B (SALL4, Homo sapiens, UniProt Q9UJQ4-2, residues 1-616)
Substance	target	test	system	conditions	scale	quantity	result
GTTCCCGA	SALL4 full length isoform A	universal PBM	double-stranded DNA, one strand shown, in vitro	600 nM, 8-mer, flanks averaged, mean of replicates	higher = stronger binding	E-score	-0.197
AAAAAATTAGGACCATCCCCACTAGGAAAA	Probable WRKY transcription factor 33, C-terminal DNA-binding domain (WRKY33, Arabidopsis thaliana, UniProt Q8S8P5, residues 346-449)	DNA-protein interaction ELISA	double-stranded DNA, one strand shown, in vitro, bacterial lysate	not given, whole dsDNA probe, crude lysate protein	reference: highest signal in screen, higher = stronger binding	relative absorbance	35.6 % of maximum
GATAGCGC	SALL4 full length isoform B	universal PBM	double-stranded DNA, one strand shown, in vitro	not given, 8-mer, flanks averaged, mean of replicates	higher = stronger binding	E-score	-0.104
PhoQ, residues 284 288 289 292 302 303 GTAMQF	PhoP, residues 12 14 15 18 19 LWHVM (Escherichia coli, UniProt P23836)	Sort-seq, refers to: YFP reporter	E. coli	PhoQ-PhoP variant library, added: 10 µM Mg2+	reference: high Mg2+ state, higher = stronger signaling	fold induction	16.8
GAGCTTTA	SALL4 full length isoform A	universal PBM	double-stranded DNA, one strand shown, in vitro	600 nM, 8-mer, flanks averaged, mean of replicates	higher = stronger binding	E-score	0.0557
AGCCCCAG	SALL4 full length isoform B	universal PBM	double-stranded DNA, one strand shown, in vitro	not given, 8-mer, flanks averaged, mean of replicates	higher = stronger binding	E-score	-0.294

Some of these lines once more (other studies, line by line):
Substance	target	test	system	conditions	scale	quantity	result
GTTCCCGA	SALL4 full length isoform A	universal PBM	double-stranded DNA, one strand shown, in vitro	600 nM, 8-mer, flanks averaged, mean of replicates	higher = stronger binding	E-score	-0.197
